Measured values pooled from the literature.
Protocols differ between the studies behind these lines. ± gives the spread as reported.

| SMILES | assay | test system | conditions | scale | endpoint | value |
| --- | --- | --- | --- | --- | --- | --- |
| CCCC[C@H](NC(=O)[C@@H](NC(=O)[C@H](CC(=O)O)NC(=O)[C@H](CCC(N)=O)NC(=O)[C@H](CC(C)C)NC(=O)[C@H](CC(C)C)NC(=O)[C@H](CCCN)NC(=O)[C@H](CCCNC(=N)N)NC(=O)[C@H](C)NC(=O)[C@H](CO)NC(=O)[C@H](CC(C)C)NC(=O)[C@H](CCC(N)=O)NC(=O)[C@H](CC)NC(=O)[C@H](CC(C)C)NC(=O)[C@@H](NC(=O)[C@H](CCCN)NC(=O)[C@H](CCCNC(=N)N)NC(=O)[C@H](Cc1ccc(O)cc1)NC(=O)[C@H](CO)NC(=O)[C@H](CCC(N)=O)NC(=O)[C@@H](NC(=O)[C@H](Cc1ccccc1)NC(=O)[C@@H](NC(=O)[C@H](C)NC(=O)[C@H](CC(=O)O)NC(=O)[C@@H](C)NC(=O)[C@H](Cc1ccc(O)cc1)NC)[C@@H](C)CC)[C@@H](C)O)C(C)C)[C@@H](C)CC)C(=O)N[C@@H](CC(=O)O)C(=O)N[C@@H](CCCNC(=N)N)C(=O)NC | GH release, ELISA | male rat, anaesthetised, serum | intravenous, 1 µg/kg, 0 min |  | serum GH level | 47.7 ± 4.1 ng/mL |
| CC[C@H]1[C@@H](O)[C@@H]2[C@H](CC[C@]3(C)[C@@H]([C@H](C)CCOS(=O)(=O)[O-])CC[C@@H]23)[C@@]2(C)CC[C@@H](O)C[C@@H]12.[Na+] |  | ob/ob NASH mouse | 3.0 mg/kg, 16 weeks, improvement > 1 points | baseline: animals | fibrosis stage improvement | 0% |
| O=C1CCN(Cc2ccccc2)CC1C(C[N+](=O)[O-])c1ccccc1 (centres unmarked) |  | mouse acetic acid writhing | 25 mg/kg, together with: haloperidol 1 mg/kg pretreatment |  | analgesic activity | 17.2% |
| CC(=O)[O-].O.O.O.O.[Ni+2].[O-]c1ccc(Br)cc1C=NCCN1CCOCC1 | superoxide scavenging |  | 240 µM |  | inhibition | 60.6% |
| O=[N][Fe]1([N]=O)[S](CCO)[Fe]([N]=O)([N]=O)[S]1CCO | western blot, item: BrdU | aged C57BL/6JNarl mice on Western diet, hippocampus | dose not given | baseline: Western diet alone | protein level | increased |
| COc1c2c(cc3oc(COC4OC(CO)C(O)C(O)C4O)cc(=O)c13)OC(C(C)(C)O)C2 (centres unmarked) | analgesic effect | mouse | oral, 2 mg/kg, 2 h |  | hot plate latency | 12.4 ± 1.71 s |
| CC(C)(O)c1ccc(N2Cc3c(ccnc3-c3ccc(F)cc3OCC(F)(F)F)C2=O)cc1 |  | Gaucher disease mouse model, brain | 10 mg/kg, single dose | baseline: vehicle | glucosylsphingosine level | 89 ± 7% |
| CC(=O)N[C@@H](C)C(=O)N[C@@H](CO)C(=O)NC(C)(C)C(=O)N[C@@H](CC(C)C)C(=O)N[C@@H](CCCNC(=N)N)C(=O)N[C@@H](CCCCN)C(=O)N[C@@H](CC(C)C)C(=O)NC(C)(C)C(=O)N[C@@H](CCCCN)C(=O)N[C@@H](CCCNC(=N)N)C(=O)N[C@@H](CC(C)C)C(=O)N[C@@H](CC(C)C)C(N)=O |  | male Long-Evans rat, fluid percussion injury | 1.0 mg/kg, 5 doses, post-injury day 11, retrograde amnesia task | baseline: sham | memory retention | no effect |
| Cc1ccc(-c2oc3ccccc3c(=O)c2OCc2ccccc2)cc1 |  | diabetic rat | 5 mg/kg, 28 days, p-nitrophenyl β-glucoside induced |  | serum LDL cholesterol | 129 ± 3.41 mg/dL |
| C[C@H](NC(=O)COC(=O)[C@H](C)NC(=O)CO)C(=O)O |  | water | pH 3, 37 °C |  | depolymerization rate constant | 0.002 h⁻¹ |
| CCCCOc1nc(N)c2[nH]c(=O)n(CCCN(CCCN3CCOCC3)Cc3cccc(CC(=O)OC)c3)c2n1 |  | rat, Brown Norway, ovalbumin-sensitised | intratracheal, eight once-weekly doses |  | duration of effect | ≥ 26 days |
| O=c1c(OCc2ccccc2)c(-c2ccc(Cl)cc2)oc2ccccc12 |  | diabetic rat | 5 mg/kg, p-nitrophenyl β-glucoside induced |  | serum alanine aminotransferase | 31.7 ± 2.11 IU |
| CCCC[C@H](NC(=O)[C@@H](NC(=O)[C@H](CC(=O)O)NC(=O)[C@H](CCC(N)=O)NC(=O)[C@H](CC(C)C)NC(=O)[C@H](CC(C)C)NC(=O)[C@H](CCCN)NC(=O)[C@H](CCCNC(=N)N)NC(=O)[C@H](C)NC(=O)[C@H](CO)NC(=O)[C@H](CC(C)C)NC(=O)[C@H](CCC(N)=O)NC(=O)[C@H](CC)NC(=O)[C@H](CC(C)C)NC(=O)[C@@H](NC(=O)[C@H](CCCN)NC(=O)[C@H](CCCNC(=N)N)NC(=O)[C@H](Cc1ccc(O)cc1)NC(=O)[C@H](CO)NC(=O)[C@H](CCC(N)=O)NC(=O)[C@@H](NC(=O)[C@H](Cc1ccccc1)NC(=O)[C@@H](NC(=O)[C@H](C)NC(=O)[C@H](CC(=O)O)NC(=O)[C@H](C)NC(=O)[C@H](Cc1ccc(O)cc1)NC)[C@@H](C)CC)[C@@H](C)O)C(C)C)[C@@H](C)CC)C(=O)N[C@@H](CC(=O)O)C(=O)NCCCCNC(=N)N | GH release, ELISA | male rat, anaesthetised, serum | intravenous, 1 µg/kg, 0 min |  | serum GH level | 37.8 ± 5.7 ng/mL |
| COc1c2c(cc3oc(CO)cc(=O)c13)O[C@H](C(C)(C)O)C2 |  | mouse, xylene ear edema | oral, 1 mg/kg |  | ear edema weight increase | 4.57 ± 0.33 mg |
| Cc1ccc(C(=O)Nc2ccc(CP(=O)(O)O)cc2CP(=O)(O)O)cc1NC(=O)c1cccc(NC(=O)Nc2cccc(C(=O)Nc3cc(C(=O)Nc4ccc(CP(=O)(O)O)cc4CP(=O)(O)O)ccc3C)c2)c1 |  | human plasma | 141 µM |  | APTT | 39.7 ± 3.9 s |
| CCCCCCOC(=O)Cc1c(C)n(C(=O)c2ccc(Cl)cc2)c2ccc(OC)cc12 | acetic acid writhing test | BALB/c mouse | intraperitoneal, 10 mg/kg | baseline: negative control | analgesia | 60.8% |

| SMILES | assay | test system | conditions | scale | endpoint | value |
| --- | --- | --- | --- | --- | --- | --- |
| O=c1c(OCc2ccccc2)c(-c2cccc([N+](=O)[O-])c2)oc2ccccc12 |  | diabetic rat | 7.5 mg/kg, 28 days, p-nitrophenyl β-glucoside induced |  | serum HDL cholesterol | 45 ± 1.94 mg/dL |
| Cc1cc2c(cc1C1(c3ncc(C(=O)O)cn3)CC1)C(C)(C)CCC2(C)C | RNA sequencing, item: Upp1 | rat, brain | dose not given, 24 h | baseline: vehicle | log2 fold change | 0.055 |
| CCCC[C@H](NC(=O)[C@@H](NC(=O)[C@H](CC(=O)O)NC(=O)[C@H](CCC(N)=O)NC(=O)[C@H](CC(C)C)NC(=O)[C@H](CC(C)C)NC(=O)[C@H](CCCN)NC(=O)[C@H](CCCNC(=N)N)NC(=O)[C@H](C)NC(=O)[C@H](CO)NC(=O)[C@H](CC(C)C)NC(=O)[C@H](CCC(N)=O)NC(=O)[C@H](CC)NC(=O)[C@H](CC(C)C)NC(=O)[C@@H](NC(=O)[C@H](CCCN)NC(=O)[C@H](CCCNC(=N)N)NC(=O)[C@H](Cc1ccc(O)cc1)NC(=O)[C@H](CO)NC(=O)[C@H](CCC(N)=O)NC(=O)[C@@H](NC(=O)[C@H](Cc1ccccc1)NC(=O)[C@@H](NC(=O)[C@H](C)NC(=O)[C@H](CC(=O)O)NC(=O)[C@H](C)NC(=O)CCc1ccc(O)cc1)[C@@H](C)CC)[C@@H](C)O)C(C)C)[C@@H](C)CC)C(=O)N[C@@H](CC(=O)O)C(=O)NCCCCNC(=N)N | GH release, ELISA | male Sprague-Dawley rat, anaesthetised, serum | subcutaneous, 3 µg/kg, 30 min |  | serum GH level | 129 ± 13.3 ng/mL |
| C=C(c1cc(F)c(C(=O)O)c(F)c1)c1cc2c(cc1C)C(C)(C)CCC2(C)C | RNA sequencing, item: Nmb | rat, brain | dose not given, 24 h | baseline: vehicle | log2 fold change | 1.28 |
| CCCC[C@H](NC(=O)[C@@H](NC(=O)[C@H](CC(=O)O)NC(=O)[C@H](CCC(N)=O)NC(=O)[C@H](CC(C)C)NC(=O)[C@H](CC(C)C)NC(=O)[C@H](CCCN)NC(=O)[C@H](CCCNC(=N)N)NC(=O)[C@H](C)NC(=O)[C@H](CO)NC(=O)[C@H](CC(C)C)NC(=O)[C@H](CCC(N)=O)NC(=O)[C@H](CC)NC(=O)[C@H](CC(C)C)NC(=O)[C@@H](NC(=O)[C@H](CCCN)NC(=O)[C@H](CCCNC(=N)N)NC(=O)[C@H](Cc1ccc(O)cc1)NC(=O)[C@H](CO)NC(=O)[C@H](CCC(N)=O)NC(=O)[C@@H](NC(=O)[C@H](Cc1ccccc1)NC(=O)[C@@H](NC(=O)[C@H](C)NC(=O)[C@H](CC(=O)O)NC(=O)[C@H](C)NC(=O)CCc1ccc(O)cc1)[C@@H](C)CC)[C@@H](C)O)C(C)C)[C@@H](C)CC)C(=O)N[C@@H](CC(=O)O)C(=O)N[C@@H](CCCNC(=N)N)C(=O)NCCCCC(N)=O | GH release, ELISA | male Sprague-Dawley rat, anaesthetised, serum | subcutaneous, 3 µg/kg, 30 min |  | serum GH level | 138 ± 27.9 ng/mL |
| O=c1c(OCc2ccccc2)c(-c2ccc([N+](=O)[O-])cc2)oc2ccccc12 |  | diabetic rat | 5 mg/kg, p-nitrophenyl β-glucoside induced |  | serum alanine aminotransferase | 46 ± 3.04 IU |
| COc1ccc(C(=O)CSc2nnc(COCCn3c([N+](=O)[O-])cnc3C)o2)cc1F |  |  | 100 µg/mL, 45 min |  | DPPH scavenging | 71.98 ± 0.17% |
| CC(=O)N[C@H](CSSC[C@H](N)C(=O)O)C(=O)N[C@H](C)C(=O)N[C@H](CCCNC(=N)N)C(=O)N[C@H](CCCNC(=N)N)C(=O)N[C@H](CCCNC(=N)N)C(=O)N[C@H](C)C(=O)N[C@H](CCCNC(=N)N)C(N)=O |  | healthy male human | intravenous, 10 mg single, 24 h |  | serum FGF23 decrease | > 30% |
| COc1ccc2c(c1)c(CC(=O)OCOC(C)=O)c(C)n2C(=O)c1ccc(Cl)cc1 | hot plate test | BALB/c mice | 100 mg/kg, 60 min |  | latency of nociceptive response | 17.6 ± 0.66 s |
| CCOP(=O)(CC(=O)Nc1ccc(S(=O)(=O)N(CC(N)=O)c2ccc(N(CC(N)=O)S(=O)(=O)c3ccc(OC)cc3)c3ccccc23)cc1)OCC | Western blot | APP/PS1 mice, hippocampus and frontal cortex | 40 mg/kg | baseline: untreated APP/PS1 mice | GPX4 protein level | increased |
| CC(=O)N[C@@H](CC(N)=O)C(=O)NCC(=O)N[C@@H](C)C(=O)N[C@@H](C)C(N)=O | 1H NMR | sodium phosphate buffer 50 mM | pH 7.4, 28 °C |  | rate constant succinimide to β-Asp | 0.12 h⁻¹ |
| COC1C=CC=C(C)C(=O)NC2=CC(=O)C(NCCN(C)C)=C(CC(C)CC(OC)C(O)C(C)C=C(C)C1OC(N)=O)C2=O (centres unmarked) | RNA-seq, item: FGFR4, MYCN | mouse, Rh30 xenograft | dose not given |  | gene expression | decreased |
| CC(C)C[C@@H]1NC(=O)[C@H](CS)NC(=O)[C@H](CCCCN)NC(=O)[C@H](CC(=O)O)N(C(=O)[C@@H](N)Cc2c[nH]c3ccccc23)CCCNC(=O)NCCCCN([C@@H](C)C(N)=O)C1=O |  | DBA/1 mouse collagen-induced arthritis | intraperitoneal, 360 pg/g weekly | baseline: PBS | arthritis incidence | no effect |
| COc1ccc(C2CC(c3ccc(C)cc3)=Nc3ccccc3S2)cc1 (centres unmarked) |  | Wistar rat, streptozotocin-induced diabetes, serum | 10 mg/kg, 28 days |  | serum ALT | 24.4 ± 2.78 IU/L |
| COc1ccc2c(c1)c(CC(=O)OCC(=O)OC(C)(C)C)c(C)n2C(=O)c1ccc(Cl)cc1 | acetic acid writhing test | BALB/c mouse | intraperitoneal, 10 mg/kg | baseline: negative control | analgesia | 56% |
| CCCC[C@H](NC(=O)[C@@H](NC(=O)[C@H](CC(=O)O)NC(=O)[C@H](CCC(N)=O)NC(=O)[C@H](CC(C)C)NC(=O)[C@H](CC(C)C)NC(=O)[C@H](CCCN)NC(=O)[C@H](CCCNC(=N)N)NC(=O)[C@H](C)NC(=O)[C@H](CO)NC(=O)[C@H](CC(C)C)NC(=O)[C@H](CCC(N)=O)NC(=O)[C@H](CC)NC(=O)[C@H](CC(C)C)NC(=O)[C@@H](NC(=O)[C@H](CCCN)NC(=O)[C@H](CCCNC(=N)N)NC(=O)[C@H](Cc1ccc(O)cc1)NC(=O)[C@H](CO)NC(=O)[C@H](CCC(N)=O)NC(=O)[C@@H](NC(=O)[C@H](Cc1ccccc1)NC(=O)[C@@H](NC(=O)[C@H](C)NC(=O)[C@H](CC(=O)O)NC(=O)[C@H](C)NC(=O)CCc1ccc(O)cc1)[C@@H](C)CC)[C@@H](C)O)C(C)C)[C@@H](C)CC)C(=O)N[C@@H](CC(=O)O)C(=O)N[C@@H](CCCNC(=N)N)C(=O)NC | GH release, ELISA | male Sprague-Dawley rat, anaesthetised, serum | subcutaneous, 3 µg/kg, 15 min |  | serum GH level | 248 ± 40.5 ng/mL |

For quick reference, copied from above:
| SMILES | assay | test system | conditions | scale | endpoint | value |
| --- | --- | --- | --- | --- | --- | --- |
| CCCCOc1nc(N)c2[nH]c(=O)n(CCCN(CCCN3CCOCC3)Cc3cccc(CC(=O)OC)c3)c2n1 |  | rat, Brown Norway, ovalbumin-sensitised | intratracheal, eight once-weekly doses |  | duration of effect | ≥ 26 days |
| COc1ccc(C2CC(c3ccc(C)cc3)=Nc3ccccc3S2)cc1 (centres unmarked) |  | Wistar rat, streptozotocin-induced diabetes, serum | 10 mg/kg, 28 days |  | serum ALT | 24.4 ± 2.78 IU/L |
| O=[N][Fe]1([N]=O)[S](CCO)[Fe]([N]=O)([N]=O)[S]1CCO | western blot, item: BrdU | aged C57BL/6JNarl mice on Western diet, hippocampus | dose not given | baseline: Western diet alone | protein level | increased |
